Measurements of several laboratories.
Each line is one published result; not all experiments were run side by side. Numbers after ± are the reported error.
Cell line: MDA-MB-231

SMILES | assay | conditions | IC50
COC(=O)[C@@H]1CCCN1C(=O)[C@H](Cc1ccccc1)NC(=O)OC(C)(C)C | cell growth or viability, SRB | – | 16 µM
CC(C)(C)OC(=O)N1CCN(CC(OCc2ccc3ccccc3c2)c2ccc(Cl)cc2Cl)CC1 (stereo not drawn) | cell growth or viability, MTT | 24 h | 20.9 µM
O=C(COc1ccccc1C1=Nn2c(Cc3ccccc3)nnc2SC1)NCCCNC(=O)COc1ccccc1C1=Nn2c(Cc3ccccc3)nnc2SC1 | cell viability, MTT | – | > 50 µM
CCCCCCCCCCCCCCCOC(=O)/C=C/c1ccc(O)c(O)c1 | cell viability, MTT | 48 h, serum-free medium | 3.9 ± 0.2 µg/mL
C=C[CH2][Pd-]([Cl])[Cl].CC(C)c1cccc(C(C)C)c1-n1c[n+](-c2c(C(C)C)cccc2C(C)C)c2c1-c1cccc3cccc-2c13 | cell growth or viability, MTT | 72 h | 4 µM
N#C[CH2][Pd]1[O]c2ccccc2C=Nc2cccnc2[N]1Cc1ccccc1 | cell growth or viability, MTT | 48 h | 25.5 µM
CCCCCCCCCCCCCCCOC(=O)/C=C/c1ccc(O)c(OC)c1 | cell viability, MTT | 48 h, serum-free medium | 2.7 ± 0.4 µg/mL
COc1cc(OC)c(-c2coc3c(CC=C(C)C)c(OC)cc(O)c3c2=O)cc1OC | cell growth or viability, MTT | 24 h | > 100 µM
COc1cc(OC)c(-c2coc3c4c(c(OC)cc3c2=O)OC(C)(C)C=C4)cc1OC | cell growth or viability, MTT | 72 h | 11.1 µM
C[C@]12CC/C(=N\OCCN3CCCC3)C=C1CCC1C2CC[C@]2(C)/C(=C/c3ccccn3)CCC12 (stereo partly drawn) | cell growth or viability, MTT | 72 h | 4.7 µM
Cc1cc(/C=C/C#N)cc(C)c1Oc1cc(Nc2ccc(C#N)cn2)nc2ccncc12 | – | 48 h | > 120 µM
COc1cccc(CNC[C@@](O)(COCc2ccccc2)[C@@H]2CC[C@@H](C)C[C@H]2OCc2ccccc2)c1 | cell growth or viability, MTT | 72 h | 16.8 µM
CC(C)c1cccc(C(C)C)c1[N+]#[C][Pt-]([Cl])([Cl])=[C](Nc1ccc(CN[C](NC(C)(C)C)=[Au][Cl])cc1)Nc1c(C(C)C)cccc1C(C)C | cell growth or viability | – | > 100 µM
CN[C@@H](C)C(=O)N[C@H]1CN(C(=O)Cc2ccccc2)CC[C@H]2CC[C@@H](C(=O)NCc3ccc(OC)cc3)N2C1=O | cell growth or viability | 96 h | 0.121 µM
COc1c(C)c(OS(=O)(=O)c2ccccc2)c(C)c(O)c1C(=O)/C=C/c1ccccc1 | cell growth or viability, SRB | 72 h | 26.1 µM
Nc1cccc[n+]1Cc1cccc(C[n+]2ccccc2N)c1 | cell growth or viability, MTT | 72 h | 19.1 µM
CC(C)c1cccc(C(C)C)c1[N+]#[C][Pd-]([Cl])([Cl])=[C](Nc1cccc(CN[C](NC(C)(C)C)=[Au][Cl])c1)Nc1c(C(C)C)cccc1C(C)C | cell growth or viability | – | > 100 µM
Cc1cc(-c2ccccc2)c2ccc3c(-c4ccccc4)cc(C)[n+]4c3c2[n+]1[Re-2]4(=[C]=O)(=[C]=O)(=[C]=O)[O]C(=O)c1cccnc1 | cell growth or viability, resazurin | 72 h | 0.591 µM

SMILES | assay | conditions | IC50
CCCCCCN(CCCCCC)C1=[S+][Au-2]2([S]1)[c]1ccccc1-c1cccc[n+]12.F[P-](F)(F)(F)(F)F (stereo not drawn) | cell growth or viability, MTT | 72 h | 1.23 µM
CC12CCC3c4ccc(OCCCOc5no[n+]([O-])c5S(=O)(=O)c5ccccc5)cc4CCC3C1CCC2O (stereo not drawn) | cell growth or viability, MTT | 48 h | 0.0022 µM
C#CCOCC1=C(C(=O)OCC)C(c2cccc(Cl)c2)N2C(=N1)Sc1ccccc12 (stereo not drawn) | cell growth or viability, MTT | – | 0.0637 µM
CC(C)c1cccc(C(C)C)c1[N+]#[C][Pd-]([Cl])([Cl])=[C](Nc1ccc(CN[C](Nc2c(C(C)C)cccc2C(C)C)=[Au][Cl])cc1)Nc1c(C(C)C)cccc1C(C)C | cell growth or viability | – | > 100 µM
O=[C]=[Re-2]1(=[C]=O)(=[C]=O)([O]C(=O)c2cccnc2)[n+]2ccc(-c3ccccc3)c3ccc4c(-c5ccccc5)cc[n+]1c4c32 | cell growth or viability, resazurin | 72 h | 4.24 µM
C=CC(=C)CC[C@]1(C)[C@H](C)CC[C@@]23C(=C[C@H](OC(=O)C(C)C)C[C@@H]12)[C@@H](OC(C)=O)O[C@H]3OC(C)=O | cell growth or viability, SRB | – | 22.9 µM
CC(C)Cc1ccc(C(C)C(=O)[O][Re-2]2(=[C]=O)(=[C]=O)(=[C]=O)[n+]3ccc(-c4ccccc4)c4ccc5c(-c6ccccc6)cc[n+]2c5c43)cc1 (racemic) | cell growth or viability, resazurin | 72 h | 1.06 µM
CC12CCC3c4ccc(OCCOc5no[n+]([O-])c5S(=O)(=O)c5ccccc5)cc4CCC3C1CCC2O (stereo not drawn) | cell growth or viability, MTT | 48 h | 0.0045 µM
Cc1cc(C#N)cc(C)c1Oc1cc(Nc2ccc(C#N)cc2)nc2ccncc12 | – | 48 h | > 128 µM
C[C@@H]1CC[C@@H]([C@@](O)(COCc2ccccc2)Cn2cnc3ccccc32)[C@H](OCc2ccccc2)C1 | cell growth or viability, MTT | 72 h | 12.4 µM
O=C(CNc1nc(Cl)nc(NNC(=O)c2ccc(Nc3nc(Nc4ccc(C(=O)NNc5nc(Cl)nc(NCC(=O)NO)n5)cc4)nc(Nc4ccc(C(=O)NNc5nc(Cl)nc(NCC(=O)NO)n5)cc4)n3)cc2)n1)NO | cell growth or viability, MTT | 72 h | 0.188 µM
CCn1[c]([Au-]([Cl])([Cl])[Cl])[n+](CC)c2ccc(C(=O)OC)cc21 | cell growth or viability, crystal violet | 96 h | 9.1 µM
C=CCc1cc(OC)c(OC(C)=O)c(OC)c1 | MTT | 24 h | > 50 µM
CN[C@@H](C)C(=O)N[C@H]1CN(C(=O)Cc2ccccc2)CC[C@H]2CC[C@@H](C(=O)NCc3ccc(Br)cc3)N2C1=O | cell growth or viability | 96 h | 0.046 µM
COc1ccc(/C=C/C(=O)/C=C/c2cn(-c3ccccc3)nc2C(=O)O)cc1O | cell growth | 72 h | > 25 µM
CC(C)c1cccc(C(C)C)c1[N+]#[C][Pd-]([Cl])([Cl])=[C](Nc1ccc(CN[C](NC(C)(C)C)=[Au][Cl])cc1)Nc1c(C(C)C)cccc1C(C)C | cell growth or viability | – | > 100 µM
CN[C@@H](C)C(=O)N[C@H]1CN(C(=O)Cc2ccccc2)CC[C@H]2CC[C@@H](C(=O)NCc3cccc(Br)c3)N2C1=O | cell growth or viability | 96 h | 0.327 µM
Oc1ccccc1-n1nc(-c2ccccc2)n[n+]1-c1ccccc1 | cell growth or viability, resazurin | 72 h | 320 µM

A few entries again:
SMILES | assay | conditions | IC50
CCCCCCN(CCCCCC)C1=[S+][Au-2]2([S]1)[c]1ccccc1-c1cccc[n+]12.F[P-](F)(F)(F)(F)F (stereo not drawn) | cell growth or viability, MTT | 72 h | 1.23 µM
CC12CCC3c4ccc(OCCCOc5no[n+]([O-])c5S(=O)(=O)c5ccccc5)cc4CCC3C1CCC2O (stereo not drawn) | cell growth or viability, MTT | 48 h | 0.0022 µM
C#CCOCC1=C(C(=O)OCC)C(c2cccc(Cl)c2)N2C(=N1)Sc1ccccc12 (stereo not drawn) | cell growth or viability, MTT | – | 0.0637 µM
